Experimental data pooled from the literature.
Protocols differ between the studies behind these lines.
Chain of UniProt Q9UQ88 (whole entry, looked up): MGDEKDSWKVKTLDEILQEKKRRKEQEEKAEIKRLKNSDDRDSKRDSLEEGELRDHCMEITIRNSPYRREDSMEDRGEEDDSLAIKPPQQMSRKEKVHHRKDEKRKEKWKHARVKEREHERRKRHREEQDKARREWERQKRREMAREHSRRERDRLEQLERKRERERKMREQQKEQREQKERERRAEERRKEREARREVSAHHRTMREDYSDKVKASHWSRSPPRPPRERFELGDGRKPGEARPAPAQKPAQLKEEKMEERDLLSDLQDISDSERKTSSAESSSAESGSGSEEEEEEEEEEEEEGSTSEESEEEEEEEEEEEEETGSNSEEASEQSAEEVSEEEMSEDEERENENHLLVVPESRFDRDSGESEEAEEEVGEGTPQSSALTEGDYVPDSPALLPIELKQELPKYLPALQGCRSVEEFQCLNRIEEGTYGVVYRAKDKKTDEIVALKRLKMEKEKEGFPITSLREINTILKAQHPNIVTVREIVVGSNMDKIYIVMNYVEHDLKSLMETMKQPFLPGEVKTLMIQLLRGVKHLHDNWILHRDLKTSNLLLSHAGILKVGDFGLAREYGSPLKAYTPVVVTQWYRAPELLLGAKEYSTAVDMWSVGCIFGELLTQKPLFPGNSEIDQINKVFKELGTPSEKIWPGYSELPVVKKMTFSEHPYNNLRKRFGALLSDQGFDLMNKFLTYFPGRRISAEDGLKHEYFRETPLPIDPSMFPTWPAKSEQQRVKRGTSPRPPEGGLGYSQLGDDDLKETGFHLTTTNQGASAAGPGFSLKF
Chain of UniProt Q9BQI3 (whole entry, looked up): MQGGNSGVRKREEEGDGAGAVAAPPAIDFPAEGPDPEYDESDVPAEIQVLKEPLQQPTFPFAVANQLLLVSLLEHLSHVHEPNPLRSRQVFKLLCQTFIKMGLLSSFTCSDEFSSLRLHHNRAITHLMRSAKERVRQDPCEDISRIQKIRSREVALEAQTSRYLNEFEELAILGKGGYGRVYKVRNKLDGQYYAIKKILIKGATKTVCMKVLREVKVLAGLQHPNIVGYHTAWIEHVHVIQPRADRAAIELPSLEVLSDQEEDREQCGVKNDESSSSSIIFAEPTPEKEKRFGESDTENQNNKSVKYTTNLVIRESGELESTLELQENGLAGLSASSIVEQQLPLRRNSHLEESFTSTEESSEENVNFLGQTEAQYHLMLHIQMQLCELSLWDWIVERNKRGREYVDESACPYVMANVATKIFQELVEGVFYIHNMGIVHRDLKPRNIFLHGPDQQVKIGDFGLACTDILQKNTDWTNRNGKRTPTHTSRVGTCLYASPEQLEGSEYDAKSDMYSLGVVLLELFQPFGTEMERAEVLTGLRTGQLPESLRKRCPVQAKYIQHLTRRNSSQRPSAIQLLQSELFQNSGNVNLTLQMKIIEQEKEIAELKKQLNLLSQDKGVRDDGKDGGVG
Chain of UniProt Q9UF33 (whole entry, looked up): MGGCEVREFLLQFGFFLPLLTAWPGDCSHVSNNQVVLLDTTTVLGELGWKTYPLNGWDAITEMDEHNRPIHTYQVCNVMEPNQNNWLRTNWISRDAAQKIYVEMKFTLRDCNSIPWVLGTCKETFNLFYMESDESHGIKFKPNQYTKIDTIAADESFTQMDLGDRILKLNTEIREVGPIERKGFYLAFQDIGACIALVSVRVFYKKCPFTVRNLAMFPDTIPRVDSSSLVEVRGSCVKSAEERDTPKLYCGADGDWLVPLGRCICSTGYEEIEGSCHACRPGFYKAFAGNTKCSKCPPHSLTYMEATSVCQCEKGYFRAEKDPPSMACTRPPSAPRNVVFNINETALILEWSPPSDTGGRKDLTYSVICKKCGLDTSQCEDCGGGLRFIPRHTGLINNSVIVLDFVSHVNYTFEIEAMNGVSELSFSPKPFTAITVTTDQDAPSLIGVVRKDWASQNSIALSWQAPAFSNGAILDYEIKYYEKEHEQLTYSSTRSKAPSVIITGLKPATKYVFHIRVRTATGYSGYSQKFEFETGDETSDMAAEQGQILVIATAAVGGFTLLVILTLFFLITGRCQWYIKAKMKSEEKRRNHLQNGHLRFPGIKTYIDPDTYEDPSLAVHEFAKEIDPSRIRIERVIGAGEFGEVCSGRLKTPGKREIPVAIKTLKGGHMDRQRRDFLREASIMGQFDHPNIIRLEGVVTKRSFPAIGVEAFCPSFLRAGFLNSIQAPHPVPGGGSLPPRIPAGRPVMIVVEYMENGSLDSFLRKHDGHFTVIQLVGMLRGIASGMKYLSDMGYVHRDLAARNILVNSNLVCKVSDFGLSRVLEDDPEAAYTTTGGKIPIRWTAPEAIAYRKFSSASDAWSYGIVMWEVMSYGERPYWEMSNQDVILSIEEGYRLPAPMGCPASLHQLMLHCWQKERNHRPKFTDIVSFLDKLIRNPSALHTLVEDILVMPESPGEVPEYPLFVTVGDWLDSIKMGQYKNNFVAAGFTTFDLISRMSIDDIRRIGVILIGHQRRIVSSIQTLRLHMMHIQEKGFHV
Chain of UniProt Q9UPZ9 (whole entry, looked up): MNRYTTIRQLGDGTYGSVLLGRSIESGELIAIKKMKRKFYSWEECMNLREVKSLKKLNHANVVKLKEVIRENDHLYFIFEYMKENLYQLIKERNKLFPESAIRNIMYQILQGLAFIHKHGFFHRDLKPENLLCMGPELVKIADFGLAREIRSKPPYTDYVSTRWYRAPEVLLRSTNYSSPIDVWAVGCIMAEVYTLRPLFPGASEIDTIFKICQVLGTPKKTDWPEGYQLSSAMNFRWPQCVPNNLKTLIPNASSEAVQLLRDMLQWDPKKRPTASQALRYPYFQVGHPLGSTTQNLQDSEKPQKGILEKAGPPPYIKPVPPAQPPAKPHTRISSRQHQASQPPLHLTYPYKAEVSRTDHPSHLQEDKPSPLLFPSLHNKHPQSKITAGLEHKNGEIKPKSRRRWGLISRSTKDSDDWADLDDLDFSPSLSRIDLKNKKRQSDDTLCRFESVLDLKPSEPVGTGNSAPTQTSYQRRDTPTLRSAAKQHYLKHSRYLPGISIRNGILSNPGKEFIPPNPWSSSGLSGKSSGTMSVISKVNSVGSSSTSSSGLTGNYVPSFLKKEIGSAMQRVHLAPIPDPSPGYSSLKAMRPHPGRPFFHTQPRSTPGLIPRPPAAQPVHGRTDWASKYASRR

COc1ccc(Nc2nn3c(-c4ccccc4)ccnc3c2C(=O)Nc2ccccc2)cc1  viability (Caco-2; cell growth or viability, MTT; 50 µg/mL, 48 h, serum-free): 34.5%
[2H]c1c([2H])c([C@]2([2H])CCCN2C(=O)C(C)(C)Oc2ccc3cn[nH]c3c2)c([2H])c([2H])c1C([2H])([2H])[2H]  remaining binding (CILK1 (Homo sapiens, UniProt Q9UPZ9); binding, competition with immobilised ligand; 1 µM): 85%
Nc1ncc(-c2nc(N3CCOCC3)nc(N3CCOCC3)n2)c(C(F)F)n1  remaining binding (CDK11A (Homo sapiens, UniProt Q9UQ88); binding, competition with immobilised ligand; 10 µM): 89%
CC(C)[C@@H]1NC(=O)[C@@H](CC(N)=O)NC(=O)[C@H](Cc2ccccc2)NC(=O)[C@@H](CCCN)NC(=O)[C@H](CCCN)NC(=O)[C@H]([C@@H](C)O)NC(=O)[C@@H](C(C)C)NC(=O)[C@H](C(C)C)NC(=O)[C@@H]([C@H](C)O)NC(=O)[C@@H](C(C)C)NC1=O  IC50 (Balamuthia mandrillaris; parasite growth, ATP luminescence): > 16 µg/mL
N#C[Se]CCCCOc1ccc2c(-c3ccccc3)cc(=O)oc2c1  GI50 (SW1573; cell growth or viability, SRB): 27 µM
COc1cc(C(=O)c2nc(-c3cccc4c3ccn4C)c[nH]2)cc(OC)c1OC  IC50 (M14; cell growth or viability, MTS; 72 h): 0.0068 µM
Cc1cc(=O)oc2cc(OCCCC[Se]C#N)ccc12  GI50 (SW1573; cell growth or viability, SRB): 2.6 µM
COc1ncccc1-c1cnn2ccc(N3CCN(C(=O)OC(C)C)CC3)nc12  remaining binding (EPHA6 (Homo sapiens, UniProt Q9UF33); binding, competition with immobilised ligand; 1 µM): 100%
Cc1c(Cl)c(=O)oc2cc(OCCCC[Se]C#N)ccc12  GI50 (T47D; cell growth or viability, SRB): 12 µM
CC(C)[C@H]1NC(=O)[C@H](Cc2ccccc2)NC(=O)CNC(=O)[C@@H](Cc2ccccc2)NC(=O)[C@H](CCCCN)NC(=O)[C@@H](CCCNC(=N)N)NC1=O  IC50 (Balamuthia mandrillaris; parasite growth, ATP luminescence): > 16 µg/mL
N.N.[Cl][Pt][Cl]  IC50 (WSUDLCL2; cell growth or viability, ATP luminescence; 72 h): 4.33 µM
Cc1nn(C)cc1-c1nc2c(N3CCN(Cc4ccc(Cl)cc4)CC3)c(Cl)cnc2[nH]1  remaining binding (EIF2AK1 (Homo sapiens, UniProt Q9BQI3); binding, competition with immobilised ligand; 1 µM): 100%
N#C[Se]Cc1cc(=O)oc2cc(O)ccc12  GI50 (SW1573; cell growth or viability, SRB): 30 µM
COc1ccc(Nc2nn3c(-c4ccccc4)ccnc3c2C(=O)Nc2ccc(Cl)cc2)cc1  viability (Caco-2; cell growth or viability, MTT; 100 µg/mL, 48 h, serum-free): 12.7%
COc1ccc(-c2cc(C(F)(F)F)c3c(N)c(C(=O)Nc4cccc(C)c4OC)sc3n2)cc1  IC50 (HepG2; cell growth or viability; 72 h): > 100 µM
CN(C)c1ccc(C(=O)NCCCCCCC(=O)NO)cc1  viability (OCI-Ly1; cell growth or viability, ATP luminescence; 0.1 µM, 5 days): 136%
Cc1ccc(NC(=O)c2ccc(CN3CCN(C)CC3)cc2)cc1Nc1nccc(-c2cccnc2)n1  viability (K562; cell growth or viability, MTT; 20 µM): 23.9%
CCOC(=O)C1=C(N)N(c2ccc(C(=O)OCC)cc2)C(O)=C(C#N)C12C(=O)Nc1ccccc12 (stereo not drawn)  viability (HepG2; cell growth or viability, MTT; 50 µM, 24 h): 16.1%

Some of these lines once more:
COc1ncccc1-c1cnn2ccc(N3CCN(C(=O)OC(C)C)CC3)nc12  remaining binding (EPHA6 (Homo sapiens, UniProt Q9UF33); binding, competition with immobilised ligand; 1 µM): 100%
